# Published values gathered from unrelated publications.
# Numbered parts are unrelated; each lists some results of a single study.
# Sequence of UniProt Q6P2M8 (whole entry, looked up): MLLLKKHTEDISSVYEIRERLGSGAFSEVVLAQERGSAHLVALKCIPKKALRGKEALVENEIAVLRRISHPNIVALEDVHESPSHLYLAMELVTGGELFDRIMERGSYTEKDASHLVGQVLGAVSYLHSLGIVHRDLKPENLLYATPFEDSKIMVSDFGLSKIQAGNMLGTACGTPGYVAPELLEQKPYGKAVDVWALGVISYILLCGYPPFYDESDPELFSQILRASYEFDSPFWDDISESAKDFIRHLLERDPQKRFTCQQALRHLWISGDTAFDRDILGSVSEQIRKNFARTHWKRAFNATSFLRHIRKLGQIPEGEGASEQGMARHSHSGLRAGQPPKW
# Sequence of UniProt O43293 (whole entry, looked up): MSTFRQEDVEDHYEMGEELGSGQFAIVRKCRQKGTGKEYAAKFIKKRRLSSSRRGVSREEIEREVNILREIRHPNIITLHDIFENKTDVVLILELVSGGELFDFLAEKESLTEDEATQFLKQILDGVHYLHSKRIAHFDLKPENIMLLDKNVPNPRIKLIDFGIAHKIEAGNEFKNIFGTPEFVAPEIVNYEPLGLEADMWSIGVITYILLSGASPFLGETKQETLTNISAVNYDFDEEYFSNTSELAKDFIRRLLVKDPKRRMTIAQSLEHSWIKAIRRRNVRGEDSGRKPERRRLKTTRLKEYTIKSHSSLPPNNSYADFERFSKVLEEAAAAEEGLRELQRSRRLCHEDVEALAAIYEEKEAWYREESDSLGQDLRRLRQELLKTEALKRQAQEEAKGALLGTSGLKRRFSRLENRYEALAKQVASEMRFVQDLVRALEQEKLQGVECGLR
# Sequence of UniProt Q12852 (whole entry, looked up): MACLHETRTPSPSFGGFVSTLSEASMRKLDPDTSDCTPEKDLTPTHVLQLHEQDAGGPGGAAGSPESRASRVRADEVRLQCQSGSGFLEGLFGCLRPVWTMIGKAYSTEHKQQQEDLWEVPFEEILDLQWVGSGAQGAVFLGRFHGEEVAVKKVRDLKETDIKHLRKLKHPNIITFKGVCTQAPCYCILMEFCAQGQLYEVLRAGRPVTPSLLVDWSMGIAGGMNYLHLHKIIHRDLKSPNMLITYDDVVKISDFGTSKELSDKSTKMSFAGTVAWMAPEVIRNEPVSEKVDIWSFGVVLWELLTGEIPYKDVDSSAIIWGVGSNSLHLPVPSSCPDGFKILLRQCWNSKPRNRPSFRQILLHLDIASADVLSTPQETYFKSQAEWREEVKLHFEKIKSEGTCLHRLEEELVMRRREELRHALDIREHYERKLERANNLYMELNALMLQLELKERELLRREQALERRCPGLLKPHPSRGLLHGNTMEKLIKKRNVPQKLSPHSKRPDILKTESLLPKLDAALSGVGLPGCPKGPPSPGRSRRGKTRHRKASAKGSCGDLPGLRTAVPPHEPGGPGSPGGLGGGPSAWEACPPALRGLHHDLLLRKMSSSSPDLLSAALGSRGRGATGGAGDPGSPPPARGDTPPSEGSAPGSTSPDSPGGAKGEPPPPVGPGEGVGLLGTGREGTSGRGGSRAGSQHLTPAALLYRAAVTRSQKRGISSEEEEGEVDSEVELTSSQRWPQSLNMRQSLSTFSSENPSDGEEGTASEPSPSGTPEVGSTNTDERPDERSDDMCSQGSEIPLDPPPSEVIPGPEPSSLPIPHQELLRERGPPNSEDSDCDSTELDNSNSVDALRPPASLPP
# Sequence of UniProt Q9Y6R4 (whole entry, looked up): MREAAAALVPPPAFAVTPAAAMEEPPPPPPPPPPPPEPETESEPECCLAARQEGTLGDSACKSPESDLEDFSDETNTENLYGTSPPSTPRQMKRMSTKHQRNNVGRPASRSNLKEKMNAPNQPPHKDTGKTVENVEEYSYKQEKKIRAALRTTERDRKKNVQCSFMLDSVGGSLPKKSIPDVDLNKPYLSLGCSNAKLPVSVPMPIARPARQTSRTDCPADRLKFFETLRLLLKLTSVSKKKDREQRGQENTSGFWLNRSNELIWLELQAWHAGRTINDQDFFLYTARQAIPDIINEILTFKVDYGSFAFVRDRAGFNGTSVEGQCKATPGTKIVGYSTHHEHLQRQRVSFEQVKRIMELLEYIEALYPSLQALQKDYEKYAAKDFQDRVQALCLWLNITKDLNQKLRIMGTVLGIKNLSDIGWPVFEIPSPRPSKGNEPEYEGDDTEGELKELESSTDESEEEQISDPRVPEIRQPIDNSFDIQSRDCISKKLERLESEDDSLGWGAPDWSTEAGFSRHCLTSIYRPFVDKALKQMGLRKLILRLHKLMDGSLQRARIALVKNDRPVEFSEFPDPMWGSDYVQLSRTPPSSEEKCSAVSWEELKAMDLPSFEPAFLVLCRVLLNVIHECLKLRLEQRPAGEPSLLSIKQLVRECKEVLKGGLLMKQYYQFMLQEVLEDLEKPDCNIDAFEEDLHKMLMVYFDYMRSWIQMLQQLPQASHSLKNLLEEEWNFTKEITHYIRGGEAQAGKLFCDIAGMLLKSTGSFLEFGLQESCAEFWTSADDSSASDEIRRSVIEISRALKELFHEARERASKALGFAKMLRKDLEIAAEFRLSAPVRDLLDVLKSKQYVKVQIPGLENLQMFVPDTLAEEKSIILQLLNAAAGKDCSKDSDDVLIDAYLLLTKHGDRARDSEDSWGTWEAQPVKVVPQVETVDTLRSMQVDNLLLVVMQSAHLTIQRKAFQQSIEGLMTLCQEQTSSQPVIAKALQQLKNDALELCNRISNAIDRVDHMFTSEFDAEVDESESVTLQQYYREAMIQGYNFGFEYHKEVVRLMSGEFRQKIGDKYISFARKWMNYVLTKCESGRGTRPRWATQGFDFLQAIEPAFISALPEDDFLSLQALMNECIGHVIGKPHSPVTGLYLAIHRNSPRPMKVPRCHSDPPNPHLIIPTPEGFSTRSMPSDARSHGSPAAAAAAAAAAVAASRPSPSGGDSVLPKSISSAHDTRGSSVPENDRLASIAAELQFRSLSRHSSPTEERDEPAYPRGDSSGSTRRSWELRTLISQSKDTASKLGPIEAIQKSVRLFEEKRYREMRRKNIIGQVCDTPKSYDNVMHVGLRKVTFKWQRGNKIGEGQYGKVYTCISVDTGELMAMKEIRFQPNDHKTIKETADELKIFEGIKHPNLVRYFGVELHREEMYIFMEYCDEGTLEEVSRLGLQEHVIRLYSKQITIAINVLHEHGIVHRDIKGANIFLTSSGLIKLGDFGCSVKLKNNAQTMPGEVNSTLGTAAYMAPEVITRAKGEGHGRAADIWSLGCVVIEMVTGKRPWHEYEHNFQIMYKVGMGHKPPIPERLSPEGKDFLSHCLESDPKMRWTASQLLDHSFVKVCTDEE

# Series 1
# Observed: AlphaScreen signal
# Method: AlphaScreen counter screen
# Matrix: His6 peptide without bromodomain
# Tested at: 50 µM
# Setting: assay interference check
SMILES,inhibition
COc1ncc(-c2ccc3nccc(-c4ccnnc4)c3c2)cc1NS(=O)(=O)c1ccc(F)cc1F,17.9%
COc1ccc(-c2nnc3ccc(SCc4cccnc4)nn23)cc1OC,6.25%
COC(=O)CCNc1ccc(O)c2c1C(=O)c1ccccc1C2=O,85.8%
CN(c1ccccc1CNc1nc(Nc2ccc3c(c2)CC(=O)N3)ncc1C(F)(F)F)S(C)(=O)=O,35.6%
O=C(Nc1ccc2[nH]nc(-c3ccncc3)c2c1)[C@@H]1CCN(CC(=O)N2CCN(c3ccc(-c4ncccn4)cc3)CC2)C1,-12.1%
CC[C@@H]1C(=O)N(C)c2cnc(Nc3ccc(C(=O)N[C@H]4CC[C@H](N5CCN(CC6CC6)CC5)CC4)cc3OC)nc2N1C(C)C,33.9%

# Series 2
# Target: Serine/threonine-protein kinase STK11 (STK11, Homo sapiens, UniProt Q15831)
# Sequence of UniProt Q15831 (whole entry, looked up): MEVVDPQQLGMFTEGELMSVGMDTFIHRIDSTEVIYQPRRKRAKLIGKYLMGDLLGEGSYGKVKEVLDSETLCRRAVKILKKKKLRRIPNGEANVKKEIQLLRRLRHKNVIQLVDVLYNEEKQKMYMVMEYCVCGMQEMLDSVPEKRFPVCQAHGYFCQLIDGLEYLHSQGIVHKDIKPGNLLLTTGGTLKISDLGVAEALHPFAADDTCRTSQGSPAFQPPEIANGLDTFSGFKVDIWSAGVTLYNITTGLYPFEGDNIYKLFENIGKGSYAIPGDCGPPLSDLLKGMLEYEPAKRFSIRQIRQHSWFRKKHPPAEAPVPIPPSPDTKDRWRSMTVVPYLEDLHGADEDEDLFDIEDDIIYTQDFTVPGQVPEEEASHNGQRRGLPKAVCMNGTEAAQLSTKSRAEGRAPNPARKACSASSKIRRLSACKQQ
# Observed: enzyme activity
# Action: inhibitor
# Tested at: 0.5 µM
# Reference: control
SMILES,remaining activity [%]
CN(C)c1ccc(C=C2C(=O)Nc3ccccc32)cc1,99.4
COc1ccc(C(=O)Nc2sc3c(c2C(N)=O)CCCC3)cc1OC,103
Nc1[nH]nc2nc3ccccc3nc12,85.7
Cn1c2ccccc2c2c3c(c4c5ccccc5n(CCC#N)c4c21)CNC3=O,31.8
O=C1NC(=O)C(c2cn(CCCO)c3ncccc23)=C1c1cnccn1,83.1
O=C(CCCc1ccc(-c2ccccc2F)cc1)Nc1ccc(O)cc1,97.4
OCC(O)CCON=C1C(c2c(O)[nH]c3ccccc23)=Nc2ccccc21 (centres unmarked),5.77
O=C(Nc1cccc(Nc2cc(Nc3cccc(C(F)(F)F)c3)ncn2)c1)C1CC1,100
Oc1ccc(-c2nc(-c3ccncc3)c(-c3ccc(F)cc3)[nH]2)cc1,93.1
CCOC(=O)c1c(C)[nH]c(/C=C2\C(=O)Nc3ccccc32)c1C,85.2
COc1cc2ncnc(Nc3ccc(Oc4ccccc4)cc3)c2cc1OC,93.6
Cc1ccc(Nc2nccc(N(C)c3ccc4c(C)n(C)nc4c3)n2)cc1S(N)(=O)=O,92.1
O=C(O)c1ccc2c3c1cccc3c(=O)n1c3ccccc3nc21,96.6
Cc1nc(-c2ccccc2)c(-c2ccncc2)o1,98.4
Cn1sc(=O)n(Cc2ccccc2)c1=O,106

# Series 3
# Structure (SMILES): C=CC(=O)N1CCC([C@@H]2CCNc3c(C(N)=O)c(-c4ccc(Oc5ccccc5)cc4)nn32)CC1
# Tested at: 1 µM
target,observed,action,inhibition
"Receptor-type tyrosine-protein kinase FLT3 (FLT3, Homo sapiens, UniProt P36888, N841I)",enzyme activity,inhibitor,35%
"Mitogen-activated protein kinase kinase kinase 12 (MAP3K12, Homo sapiens, UniProt Q12852)",enzyme activity,inhibitor,0%
"Calcium/calmodulin-dependent protein kinase type 1B (PNCK, Homo sapiens, UniProt Q6P2M8)",cell-free assay,,0%
"Mitogen-activated protein kinase kinase kinase 4 (MAP3K4, Homo sapiens, UniProt Q9Y6R4)",enzyme activity,inhibitor,12%
"cAMP-dependent protein kinase catalytic subunit beta (PRKACB, Homo sapiens, UniProt P22694)",enzyme activity,inhibitor,36%
"Death-associated protein kinase 3 (DAPK3, Homo sapiens, UniProt O43293)",enzyme activity,inhibitor,11%

# Series 4
# Cell line: sample F normal colon organoid
# Method: CellTiter-Glo
# Tested at: 1 µM
# Time: 4 days
# Reference: DMSO
SMILES,viability [%]
CN(C)c1ncnc(-c2ccc3nc(Nc4cc(CN5CCN(C(=O)CC(F)(F)F)CC5)ccn4)[nH]c3c2)c1Cl,106
C[C@H](c1ccnc(Nc2nc3ccc(-c4cc(N(C)C)ncn4)cc3[nH]2)c1)N1CCN(C(=O)CC(F)(F)F)CC1,107
NS(=O)(=O)c1cc(NC(=O)C2(c3ccccc3Cl)CC2)ccc1Oc1cccc(Cl)c1,102
C[C@H](c1ccc(F)cc1)N(Cc1cccc(C(=O)O)c1)C(=O)c1cnc2ccccc2c1,101
C[C@@]1(Cc2ccc(C#N)cc2)C(=O)N(c2cc(Cl)cc(Cl)c2)c2ncc(C(=O)NC3(c4nc(C5CCC5)no4)CC3)n21,91.9
CCCCN(Cc1ccccc1)C(=O)c1ccc(S(=O)(=O)Nc2ccccc2)cc1,109
O=C(Nc1cccnn1)N1CCC(=Cc2cccc(Oc3ccc(C(F)(F)F)cn3)c2)CC1,99.7
CN(C)C(=O)Cn1cc(-c2nc(C3(c4ccc(-c5cnc(N)nc5)cc4)CC3)no2)cn1,106

# Excerpt of the above (series 2):
SMILES,remaining activity [%]
Cn1c2ccccc2c2c3c(c4c5ccccc5n(CCC#N)c4c21)CNC3=O,31.8
O=C(CCCc1ccc(-c2ccccc2F)cc1)Nc1ccc(O)cc1,97.4
COc1ccc(C(=O)Nc2sc3c(c2C(N)=O)CCCC3)cc1OC,103
